Measurements of several laboratories.
Each numbered part is a random draw from the data of one study; scales do not carry over between parts.

Study 1 — technique: protein binding microarray; form: double-stranded DNA, one strand shown; matrix: in vitro; concentration: not given; relative to: not given; direction: higher = stronger binding
Target: Histone acetyltransferase KAT6A, both winged helices, GST fusion (KAT6A, Homo sapiens, UniProt Q92794, residues 1-181)
Setting: 8-mer, flanks averaged, mean of 2 arrays, mostly near background
Residues (chain): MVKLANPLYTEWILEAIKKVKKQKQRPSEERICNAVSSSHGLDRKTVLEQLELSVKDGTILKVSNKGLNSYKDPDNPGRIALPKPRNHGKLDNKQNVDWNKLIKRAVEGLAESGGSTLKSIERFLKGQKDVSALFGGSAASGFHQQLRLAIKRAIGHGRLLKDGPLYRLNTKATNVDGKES
| Sequence | E-score |
| --- | --- |
| CAGGTCTC | -0.141 |
| AGTTTAAA | -0.0814 |
| CCCCATAC | -0.0909 |
| AACCGAGG | -0.0993 |
| ACGGTACA | 0.154 |
| CCTGGGAC | -0.111 |
| GTGTTAGA | -0.12 |
| CCCATGCC | -0.0384 |
| GGTTTGAC | 0.104 |
| ATATGCTG | -0.0561 |
| GCGCTCTA | 0.25 |
| TAACCACA | -0.0724 |
| GGCGGTAA | 0.284 |
| CGGATACG | 0.241 |
| GATACTTA | -0.228 |
| ATGGAAAA | -0.0946 |
| TCAGTTCA | -0.068 |
| AGATCTGA | -0.0104 |
| GCTATCAA | -0.039 |

Study 2 — technique: universal PBM; form: double-stranded DNA, one strand shown; matrix: in vitro; concentration: 600 nM; direction: higher = stronger binding
Target: Sal-like protein 4, full length isoform A (SALL4, Homo sapiens, UniProt Q9UJQ4, residues 1-1053)
Sequence of UniProt Q9UJQ4 (whole entry, looked up): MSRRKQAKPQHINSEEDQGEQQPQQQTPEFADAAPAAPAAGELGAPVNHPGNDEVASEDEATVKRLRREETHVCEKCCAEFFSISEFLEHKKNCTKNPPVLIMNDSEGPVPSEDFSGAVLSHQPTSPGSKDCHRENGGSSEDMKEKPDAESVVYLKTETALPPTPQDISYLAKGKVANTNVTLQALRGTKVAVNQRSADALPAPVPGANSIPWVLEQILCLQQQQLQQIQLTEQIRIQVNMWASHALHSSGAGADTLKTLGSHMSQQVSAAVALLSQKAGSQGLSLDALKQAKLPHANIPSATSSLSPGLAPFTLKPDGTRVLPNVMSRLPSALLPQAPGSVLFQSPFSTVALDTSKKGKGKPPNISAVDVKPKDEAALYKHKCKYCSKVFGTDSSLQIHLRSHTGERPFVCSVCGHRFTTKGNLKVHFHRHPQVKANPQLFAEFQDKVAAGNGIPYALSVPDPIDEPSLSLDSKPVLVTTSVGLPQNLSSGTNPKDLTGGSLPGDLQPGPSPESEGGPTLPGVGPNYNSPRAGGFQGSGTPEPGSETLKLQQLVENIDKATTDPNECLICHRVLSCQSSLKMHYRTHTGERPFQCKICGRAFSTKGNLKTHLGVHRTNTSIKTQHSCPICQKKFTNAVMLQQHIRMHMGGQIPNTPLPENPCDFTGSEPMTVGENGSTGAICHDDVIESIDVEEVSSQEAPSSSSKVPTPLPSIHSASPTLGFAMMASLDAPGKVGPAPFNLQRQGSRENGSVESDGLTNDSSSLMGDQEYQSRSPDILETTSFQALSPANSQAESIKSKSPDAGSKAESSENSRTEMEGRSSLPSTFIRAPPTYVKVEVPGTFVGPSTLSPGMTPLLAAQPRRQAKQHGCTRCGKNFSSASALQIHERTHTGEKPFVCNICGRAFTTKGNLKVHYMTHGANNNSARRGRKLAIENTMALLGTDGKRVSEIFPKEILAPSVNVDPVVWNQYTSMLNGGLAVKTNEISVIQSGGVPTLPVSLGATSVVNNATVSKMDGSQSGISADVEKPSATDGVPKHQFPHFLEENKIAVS
Setting: 8-mer, flanks averaged, mean of replicates
| Sequence | E-score |
| --- | --- |
| ATAGATCG | 0.0429 |
| ACATCTAG | 0.0922 |
| GTTGTGCA | -0.0911 |
| CGTCCTTA | -0.0298 |
| CCCTGTCA | -0.112 |
| AGACAAAC | -0.0513 |
| CCCGCATA | 0.0575 |
| CATTAACA | 0.282 |
| CAAAAAAC | 0.187 |
| CAATAGGC | 0.0386 |
| AAAGGTAA | 0.197 |
| CCTCATAA | 0.262 |
| CTCCTTCC | -0.141 |
| CGTGCTAG | -0.161 |
| AGCCGCCT | -0.322 |
| AATTTTGC | 0.269 |
| AATCACTG | 0.0318 |

Study 3 — technique: RNA Bind-n-Seq; form: RNA; matrix: in vitro; concentration: 365 nM; relative to: no-protein control; direction: higher = stronger binding
Target: RNA binding protein fox-1 homolog 2, RRM domain, GST-SBP tag (RBFOX2, Homo sapiens, UniProt O43251-10, residues 100-194)
Setting: natural RNA segment, single round, ends assumed
Target sequence (chain): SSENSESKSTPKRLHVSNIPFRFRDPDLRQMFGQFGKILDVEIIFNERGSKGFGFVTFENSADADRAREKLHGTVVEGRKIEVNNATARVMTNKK
| Sequence | RBNS enrichment (R) |
| --- | --- |
| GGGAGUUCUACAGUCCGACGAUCCAGCCAAGCUGUGCCCCAUCCCCCAAGCCUCCUGGGAGGAUCCAGCCAAAUCUUGCGACUCCUGGCACACACCUGUCUGUAACCUGUUUUGUGCUCUGAAAGCAAAUAGUUGGAAUUCUCGGGUGCCAA | 0.274 |
| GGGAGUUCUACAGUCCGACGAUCAAUCUUCCAGGCUUCAUCAUCAAGAGGGGAAGGGACCUUAAUUCUAGGGUCUCCCCUUUACCCUCUCUCCUUAUUUAUUCUUGCCCCUCUGCUAUUAUUCCUUGCUGUUUUGGAAUUCUCGGGUGCCAA | 0.587 |
| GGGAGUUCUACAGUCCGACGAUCAGUGUUUUGAGUCAACUGAAAAAAAGCAUGACUUUUGGAAUCUCUGAAUGCCUUGGUUCUCAGUAUUAUCACUCUAUUGAAUUUUUUUUUCUUAUUAAAGUAUGUAGUUUUGGAAUUCUCGGGUGCCAA | 4.75 |
| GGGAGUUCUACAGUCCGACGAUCAUGCUGCUAUCAUUUAUUUGGUCCUUUGAAGAUCUCAGUAGCUGAGGGAGAUGGCACACGGGGCUCAGCCCUGUUGGGAAACUGGUGUGGAGACCCUUAAAUCCACACUGUGGAAUUCUCGGGUGCCAA | 0.274 |
| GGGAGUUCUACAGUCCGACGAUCUGAGAGAGGGAUCUUGCAGCUGUCAUUUCUGGUCUUGUAGCCUUCAUCAGAGGCUGUUUUCCAUGAUCUGGUCCUUCCUCCAGAAAGAAGCAGGAGUUCUCAGAGGAACAUGGAAUUCUCGGGUGCCAA | 0.428 |
| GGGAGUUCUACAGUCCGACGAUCAGAUGUCGUUAAUCCCACCCACGUCCACCAUGACAGGCCUGUGUCAGCCUCCCUGAAACACAGCAGCCCCCCUUACUAAUCACAGGCACAAAUGGAGAGGAAGGGGUCCCUGGAAUUCUCGGGUGCCAA | 0.626 |
| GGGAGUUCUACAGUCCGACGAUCCGGACAGACGCCUUGCCCAGGGUGUGUUUGCUGAGUGUCUUGACUACCGUGACACCACGCAUGGCCAGAGCUAGCGUCCCUACUGCCUCCCGACUCCUCAGUGGAGGAGGUGGAAUUCUCGGGUGCCAA | 0.403 |
| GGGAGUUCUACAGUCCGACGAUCCCUUUCUAAGCUCCCUAACUUGGGCCAGAAACCAAAGCUGAGCUUUUAACUUUCUCCCUCUAUGACACAAAUGAAUUGAGGGUAGGAGGAGGGUGCACAUAACCCUUACCUGGAAUUCUCGGGUGCCAA | 0.47 |
| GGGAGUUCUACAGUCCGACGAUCGGAUCAGAACUUACAAACCAAACUUUUAUUCUGAGAAACUGGCUGUACAAUAUCUAAAAAGAAAGUGACAUGAAGGAAGCAAUCUACAACUUCCUUCCGCUUAGCGAGCAUGGAAUUCUCGGGUGCCAA | 0.586 |
| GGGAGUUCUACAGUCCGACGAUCGACAAGCCACGUCCCCUCCCACCUCUCCCCAAACCCCUGCAUCCCUGUAUUCACACGGGUCACUCUGACUCAGACAGGUACUAUUCGUAGGCAGUGUAGACAGCAGGAGGUGGAAUUCUCGGGUGCCAA | 0.448 |
| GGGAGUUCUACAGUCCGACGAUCACCCAGGGAGGCAGCAGACAGGUGGGAGCUCCUGGGGCACGGCCGUGGGAUUGCUUCCACCAGUGUGUUUCUGAGACUUCUCCUUAUCUUCCAGGCCAAAGUAUGUUGCUUGGAAUUCUCGGGUGCCAA | 0.62 |
| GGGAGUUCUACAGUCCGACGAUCGACCUGAUUAAAAUGAAGGGAUUUAAUCGUUGUUAAAGUUAAGUUAGUCAAAUAAAUUACCUACUGGAAUAUAGCCCAAGCCAGUAAAGGUUUAAUAUUUGCAUUUUCGUUGGAAUUCUCGGGUGCCAA | 0.485 |

Study 4 — technique: competition protein-binding microarray; form: double-stranded DNA, one strand shown; matrix: in vitro; concentration: 2 µM; added: Pho4 competitor, 0.05 µM; direction: higher = stronger binding
Target: Centromere-binding protein 1, full length, His-tagged (CBF1, Saccharomyces cerevisiae, UniProt P17106, residues 1-351)
Sequence of UniProt P17106 (whole entry, looked up): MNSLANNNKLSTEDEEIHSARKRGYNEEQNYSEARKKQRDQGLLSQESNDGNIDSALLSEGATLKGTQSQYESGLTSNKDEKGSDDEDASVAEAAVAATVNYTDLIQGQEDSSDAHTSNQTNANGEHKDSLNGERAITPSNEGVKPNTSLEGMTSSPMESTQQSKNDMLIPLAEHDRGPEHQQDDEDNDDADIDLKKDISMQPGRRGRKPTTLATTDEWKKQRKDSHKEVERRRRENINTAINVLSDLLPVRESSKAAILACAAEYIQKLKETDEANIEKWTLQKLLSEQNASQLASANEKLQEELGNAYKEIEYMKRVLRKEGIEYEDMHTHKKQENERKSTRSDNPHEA
Setting: whole 60-bp probe, lowest competitor level
| Sequence | fluorescence intensity [a.u.] |
| --- | --- |
| CTTCTGTAAATTTGGTGAGTGGGTGGACGCGCCCCGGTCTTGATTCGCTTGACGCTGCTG | 81.7 |
| GTTGAGCAGCTCTCCTGCGTGCTTTCACAGAGACCCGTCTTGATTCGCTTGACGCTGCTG | 63 |
| CGTCCTAGTGATTGCGGTGTGGGTGCCATGAGGAAGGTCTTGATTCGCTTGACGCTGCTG | 78 |
| CCGGTTGATAATACGCAGGTGACGTTTGATAATGTGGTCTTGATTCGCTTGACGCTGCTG | 227 |
| GTTATTGGGCTAGGACACGTATGCGAACTACAACCTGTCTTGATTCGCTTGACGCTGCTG | 69.1 |
| TGTTTTTTCTTCTGTCAGGTGAAAGTATAGGACCAAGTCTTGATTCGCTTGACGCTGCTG | 184 |
| CTTTCCCGATCTTGCGTGGTGGGTGTAGCACATTTGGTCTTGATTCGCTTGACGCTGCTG | 84.4 |
| CTAACGAAGGTTTTTCACGTGTTCTACAAGCCAAGTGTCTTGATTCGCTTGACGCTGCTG | 1440 |
| AAGTTACGCGTATATCATGTGACAGTAATTACTATAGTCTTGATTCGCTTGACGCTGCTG | 2600 |
| AGGAACCTCAATCGGCACGGCCAACTCGCAAGCGCAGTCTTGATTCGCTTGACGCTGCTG | 59.5 |
| CCTAAGATGGGTCGGCACGTGTAATGAACTGAACGCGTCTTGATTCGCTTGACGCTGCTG | 951 |
| AGCGAGTTCACCCGTCACGTGCAAAGAGAACTCACAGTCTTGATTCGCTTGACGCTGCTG | 4950 |
| ACCAGCGTTGGACGCGTCGTGCGGATTCGTTCTTGTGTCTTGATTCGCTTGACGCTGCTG | 58.8 |
| GTCTTGTCTCATTGCGGCGTGGGTGTCCCCACTTCAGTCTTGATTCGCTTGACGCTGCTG | 81.7 |
| GGATGTTTTCCAGATGTCGTGATGGTTTCACGAAGCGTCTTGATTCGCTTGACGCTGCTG | 130 |
| CGGGGTTAAGTTTGTGCAGTGGGTGGCTTGCAGCAGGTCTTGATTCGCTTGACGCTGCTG | 59.3 |
| ATCAGAAGACCGCGAAACGTGCCGATGCAACCTTTTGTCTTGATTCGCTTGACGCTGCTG | 116 |
| CTTTCCCGATCTTGGCAGGTGGGTGTAGCACATTTGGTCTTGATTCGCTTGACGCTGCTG | 76.2 |
| TAATTGATTGGTTACCACGTAAATTCTTGAGCCTTTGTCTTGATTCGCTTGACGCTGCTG | 62.5 |
| AACCTGGAAGTGGGCCACATGTTGTAAAAGGAAGCTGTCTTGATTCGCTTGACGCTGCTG | 93.1 |
| TCTCGAAATTTGTCTTTCGTGATGGTTGCACAGTCTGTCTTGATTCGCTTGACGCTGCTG | 71.5 |
| GCTTCCCTATTTTTGCACGTTTTGGTTGCTCCCAAGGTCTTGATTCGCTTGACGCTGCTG | 139 |
| AAAGCGGTAATTTGTCACGACACTTCACATATCTATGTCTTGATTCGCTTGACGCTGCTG | 326 |
| AGCGCCAATTGGTTACTCGTGAAGCTCAGATTAAAGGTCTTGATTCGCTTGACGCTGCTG | 89.3 |
| GGTGGTACCTGTGTTAACGTGGGTAGTGTTCCGAAGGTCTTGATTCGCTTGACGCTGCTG | 95.4 |

A few entries again (study 4):
| Sequence | fluorescence intensity [a.u.] |
| --- | --- |
| ACCAGCGTTGGACGCGTCGTGCGGATTCGTTCTTGTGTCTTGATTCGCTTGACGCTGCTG | 58.8 |
| GTCTTGTCTCATTGCGGCGTGGGTGTCCCCACTTCAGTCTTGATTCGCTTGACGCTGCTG | 81.7 |
| GGATGTTTTCCAGATGTCGTGATGGTTTCACGAAGCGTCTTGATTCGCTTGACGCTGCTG | 130 |
| CGGGGTTAAGTTTGTGCAGTGGGTGGCTTGCAGCAGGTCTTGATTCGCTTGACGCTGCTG | 59.3 |
| ATCAGAAGACCGCGAAACGTGCCGATGCAACCTTTTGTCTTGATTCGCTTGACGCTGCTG | 116 |
| CTTTCCCGATCTTGGCAGGTGGGTGTAGCACATTTGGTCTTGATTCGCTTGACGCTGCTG | 76.2 |
| TAATTGATTGGTTACCACGTAAATTCTTGAGCCTTTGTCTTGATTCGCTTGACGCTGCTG | 62.5 |
| AACCTGGAAGTGGGCCACATGTTGTAAAAGGAAGCTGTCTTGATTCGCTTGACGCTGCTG | 93.1 |
